Measurements collected from several papers.
± gives the spread as reported.
kasA: 3-oxoacyl-[acyl-carrier-protein] synthase 1 (kasA, Mycobacterium tuberculosis, UniProt P9WQD9)
Sequence of UniProt P9WQD9 (whole entry, looked up): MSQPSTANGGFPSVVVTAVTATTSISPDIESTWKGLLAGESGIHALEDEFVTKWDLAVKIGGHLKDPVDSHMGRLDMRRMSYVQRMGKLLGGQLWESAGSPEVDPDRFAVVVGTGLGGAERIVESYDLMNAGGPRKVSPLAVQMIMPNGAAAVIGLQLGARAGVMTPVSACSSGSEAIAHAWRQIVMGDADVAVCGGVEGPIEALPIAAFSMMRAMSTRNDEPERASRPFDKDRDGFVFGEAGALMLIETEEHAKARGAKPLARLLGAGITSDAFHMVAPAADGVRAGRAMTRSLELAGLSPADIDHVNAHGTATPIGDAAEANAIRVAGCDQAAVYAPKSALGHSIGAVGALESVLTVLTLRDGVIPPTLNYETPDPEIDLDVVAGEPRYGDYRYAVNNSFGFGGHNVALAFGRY
Sequence of UniProt Q16543 (whole entry, looked up): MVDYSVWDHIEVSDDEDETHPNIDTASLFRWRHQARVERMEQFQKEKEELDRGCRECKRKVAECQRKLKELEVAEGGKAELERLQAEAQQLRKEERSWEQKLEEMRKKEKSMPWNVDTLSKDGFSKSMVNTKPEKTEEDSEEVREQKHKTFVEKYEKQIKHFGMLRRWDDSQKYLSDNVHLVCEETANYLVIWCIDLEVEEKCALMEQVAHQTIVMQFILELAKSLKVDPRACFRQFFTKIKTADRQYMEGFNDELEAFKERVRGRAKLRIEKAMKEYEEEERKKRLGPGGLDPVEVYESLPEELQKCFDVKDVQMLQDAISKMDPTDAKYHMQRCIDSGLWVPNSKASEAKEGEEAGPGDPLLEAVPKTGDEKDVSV
Sequence of UniProt P51812 (whole entry, looked up): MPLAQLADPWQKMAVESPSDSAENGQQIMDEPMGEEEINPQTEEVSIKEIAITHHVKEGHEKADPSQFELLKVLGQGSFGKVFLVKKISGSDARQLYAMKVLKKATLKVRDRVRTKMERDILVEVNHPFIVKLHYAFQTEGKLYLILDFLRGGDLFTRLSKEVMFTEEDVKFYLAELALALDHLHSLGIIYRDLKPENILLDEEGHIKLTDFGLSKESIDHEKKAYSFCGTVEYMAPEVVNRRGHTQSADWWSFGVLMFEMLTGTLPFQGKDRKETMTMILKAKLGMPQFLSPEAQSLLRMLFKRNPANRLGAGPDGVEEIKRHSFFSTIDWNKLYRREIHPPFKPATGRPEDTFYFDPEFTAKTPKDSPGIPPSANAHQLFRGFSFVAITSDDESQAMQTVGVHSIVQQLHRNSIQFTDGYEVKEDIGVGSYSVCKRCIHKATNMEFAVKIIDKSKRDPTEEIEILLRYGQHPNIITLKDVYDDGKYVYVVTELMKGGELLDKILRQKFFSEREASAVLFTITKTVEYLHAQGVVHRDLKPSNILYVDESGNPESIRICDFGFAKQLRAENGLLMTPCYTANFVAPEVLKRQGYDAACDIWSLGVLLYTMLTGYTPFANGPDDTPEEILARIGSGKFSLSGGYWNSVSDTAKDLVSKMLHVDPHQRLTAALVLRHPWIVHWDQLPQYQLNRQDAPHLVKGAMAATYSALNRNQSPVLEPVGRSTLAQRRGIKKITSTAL
Sequence of UniProt Q8TDS4 (whole entry, looked up): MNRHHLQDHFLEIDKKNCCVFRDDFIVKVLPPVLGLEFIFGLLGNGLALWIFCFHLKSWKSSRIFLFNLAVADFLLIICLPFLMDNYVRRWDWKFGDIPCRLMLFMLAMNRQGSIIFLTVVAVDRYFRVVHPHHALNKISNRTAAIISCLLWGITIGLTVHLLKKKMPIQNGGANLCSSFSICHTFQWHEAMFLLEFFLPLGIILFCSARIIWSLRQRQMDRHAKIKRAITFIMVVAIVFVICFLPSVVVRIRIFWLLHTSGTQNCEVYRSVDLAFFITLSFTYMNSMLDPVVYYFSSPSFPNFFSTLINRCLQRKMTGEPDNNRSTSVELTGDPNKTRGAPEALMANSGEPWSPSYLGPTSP
Sequence of UniProt P21728 (whole entry, looked up): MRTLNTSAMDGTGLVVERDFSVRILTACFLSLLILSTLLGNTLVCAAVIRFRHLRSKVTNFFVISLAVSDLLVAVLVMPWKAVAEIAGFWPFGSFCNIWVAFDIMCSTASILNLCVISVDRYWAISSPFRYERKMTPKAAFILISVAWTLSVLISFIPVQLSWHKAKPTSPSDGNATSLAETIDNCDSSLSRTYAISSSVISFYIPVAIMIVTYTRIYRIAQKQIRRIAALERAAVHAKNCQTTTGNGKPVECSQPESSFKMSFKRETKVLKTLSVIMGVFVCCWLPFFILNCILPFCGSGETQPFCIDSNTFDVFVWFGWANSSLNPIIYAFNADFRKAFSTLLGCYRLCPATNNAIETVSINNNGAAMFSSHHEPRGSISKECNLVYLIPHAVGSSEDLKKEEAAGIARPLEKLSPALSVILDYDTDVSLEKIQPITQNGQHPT
Sequence of UniProt Q6UWW8 (whole entry, looked up): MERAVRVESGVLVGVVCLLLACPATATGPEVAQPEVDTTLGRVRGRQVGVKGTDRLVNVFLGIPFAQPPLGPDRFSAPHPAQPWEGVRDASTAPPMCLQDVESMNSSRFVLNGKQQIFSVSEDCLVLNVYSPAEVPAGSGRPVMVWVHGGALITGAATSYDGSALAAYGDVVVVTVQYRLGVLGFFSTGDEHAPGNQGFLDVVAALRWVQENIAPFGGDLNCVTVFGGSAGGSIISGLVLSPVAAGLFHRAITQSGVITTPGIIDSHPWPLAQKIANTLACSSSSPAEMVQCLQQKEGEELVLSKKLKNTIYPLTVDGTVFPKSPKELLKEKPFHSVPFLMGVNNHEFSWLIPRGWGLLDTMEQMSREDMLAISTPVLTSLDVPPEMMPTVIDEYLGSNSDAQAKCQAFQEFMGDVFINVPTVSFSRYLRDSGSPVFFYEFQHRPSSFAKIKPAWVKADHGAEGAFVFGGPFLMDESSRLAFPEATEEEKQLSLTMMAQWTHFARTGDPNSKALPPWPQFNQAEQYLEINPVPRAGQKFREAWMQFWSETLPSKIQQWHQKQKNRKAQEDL
Sequence of UniProt Q6PHR2 (whole entry, looked up): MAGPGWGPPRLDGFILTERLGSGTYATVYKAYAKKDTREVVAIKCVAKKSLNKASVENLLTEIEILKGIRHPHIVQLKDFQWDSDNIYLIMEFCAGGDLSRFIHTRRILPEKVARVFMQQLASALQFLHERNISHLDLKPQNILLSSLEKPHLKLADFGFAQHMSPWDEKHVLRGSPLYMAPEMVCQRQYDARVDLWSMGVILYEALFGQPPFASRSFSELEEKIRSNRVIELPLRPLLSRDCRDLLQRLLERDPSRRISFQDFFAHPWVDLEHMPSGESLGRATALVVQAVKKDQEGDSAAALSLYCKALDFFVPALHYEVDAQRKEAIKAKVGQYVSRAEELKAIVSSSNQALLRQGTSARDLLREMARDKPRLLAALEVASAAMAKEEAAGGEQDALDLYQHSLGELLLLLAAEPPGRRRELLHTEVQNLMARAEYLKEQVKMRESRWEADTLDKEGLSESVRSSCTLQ
Sequence of UniProt P11473 (whole entry, looked up): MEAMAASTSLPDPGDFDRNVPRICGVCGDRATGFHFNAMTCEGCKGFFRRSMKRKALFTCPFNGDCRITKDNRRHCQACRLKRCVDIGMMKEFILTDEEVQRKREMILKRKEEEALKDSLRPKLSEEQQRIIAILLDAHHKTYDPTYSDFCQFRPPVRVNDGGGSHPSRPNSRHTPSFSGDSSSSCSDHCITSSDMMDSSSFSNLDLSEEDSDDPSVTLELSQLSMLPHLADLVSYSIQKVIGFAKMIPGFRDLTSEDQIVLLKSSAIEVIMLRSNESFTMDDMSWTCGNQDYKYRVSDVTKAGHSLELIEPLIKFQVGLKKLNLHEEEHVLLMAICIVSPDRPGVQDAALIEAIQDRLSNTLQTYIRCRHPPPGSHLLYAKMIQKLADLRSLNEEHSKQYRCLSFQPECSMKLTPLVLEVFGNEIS
Sequence of UniProt Q8NFD2 (whole entry, looked up): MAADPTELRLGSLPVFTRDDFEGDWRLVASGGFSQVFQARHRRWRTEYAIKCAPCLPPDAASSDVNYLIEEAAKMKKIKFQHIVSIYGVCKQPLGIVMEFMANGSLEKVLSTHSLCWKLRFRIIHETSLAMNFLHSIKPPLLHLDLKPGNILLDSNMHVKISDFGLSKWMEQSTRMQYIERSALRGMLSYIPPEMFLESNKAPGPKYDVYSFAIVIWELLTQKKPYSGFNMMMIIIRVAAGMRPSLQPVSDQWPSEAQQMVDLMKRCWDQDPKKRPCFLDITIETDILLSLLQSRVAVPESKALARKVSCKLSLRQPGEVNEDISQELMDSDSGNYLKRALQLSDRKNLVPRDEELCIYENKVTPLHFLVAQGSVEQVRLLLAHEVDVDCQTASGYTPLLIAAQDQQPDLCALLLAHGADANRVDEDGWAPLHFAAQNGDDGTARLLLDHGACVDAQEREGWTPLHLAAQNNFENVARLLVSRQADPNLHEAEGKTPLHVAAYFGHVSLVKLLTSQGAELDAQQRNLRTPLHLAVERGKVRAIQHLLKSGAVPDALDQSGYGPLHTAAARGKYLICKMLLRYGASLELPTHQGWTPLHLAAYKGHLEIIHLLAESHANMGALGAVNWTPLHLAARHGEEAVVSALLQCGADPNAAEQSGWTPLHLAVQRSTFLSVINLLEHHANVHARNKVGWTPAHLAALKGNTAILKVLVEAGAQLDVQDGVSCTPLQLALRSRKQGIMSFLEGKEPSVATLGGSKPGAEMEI
Sequence of UniProt P34995 (whole entry, looked up): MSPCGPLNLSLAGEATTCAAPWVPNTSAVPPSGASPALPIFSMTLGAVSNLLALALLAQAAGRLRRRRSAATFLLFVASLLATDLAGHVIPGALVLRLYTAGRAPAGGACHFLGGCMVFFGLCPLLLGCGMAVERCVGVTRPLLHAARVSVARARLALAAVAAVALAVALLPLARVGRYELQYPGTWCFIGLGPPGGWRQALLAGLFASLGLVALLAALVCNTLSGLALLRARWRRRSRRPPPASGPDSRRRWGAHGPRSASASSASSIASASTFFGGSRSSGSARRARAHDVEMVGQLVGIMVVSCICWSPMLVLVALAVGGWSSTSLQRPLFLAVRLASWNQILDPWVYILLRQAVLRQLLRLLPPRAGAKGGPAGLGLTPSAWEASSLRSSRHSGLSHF

| SMILES | tested on | test | test system | conditions | scale | endpoint | result |
| --- | --- | --- | --- | --- | --- | --- | --- |
| CCN1CCN(Cc2ccc(NC(=O)c3ccc(C)c(/C=C/c4cnc5[nH]ccc5c4OC)c3)cc2C(F)(F)F)CC1 | RPS6KA3 (Homo sapiens, UniProt P51812) |  | A-375 | concentration not given |  | inhibition | -27.9% |
| COc1ccc(N2C(=O)N(c3c(C)cccc3Cl)Cc3cnc(Nc4ccc(C5CCN(C)CC5)cc4OC)nc32)nc1 | ULK3 (Homo sapiens, UniProt Q6PHR2) | kinase activity |  | 0.5 µM |  | inhibition | 3.65% |
| O=C(Nc1cnccc1Cl)N1CCN(Cc2ccc3c(c2)OC(F)(F)O3)CC1 | Vitamin D3 receptor (VDR, Homo sapiens, UniProt P11473) | radioligand binding, inhibitor |  | 50 µM, human, with: [3H]1alpha,25-dihydroxyvitamin D3 |  | inhibition | 19% |
| C[C@@]1(O)CC[C@@]2(C)[C@@H](CC[C@@H]3[C@@H]2CC[C@]2(C)[C@@H]([N+](=O)[O-])CC[C@@H]32)C1 |  | [3H]flunitrazepam binding, positive modulator | rat cerebral cortex homogenate |  | reference: allopregnanolone Emax | Emax | 99 ± 7% |
| O=C(Nc1cccnn1)N1CCC(=Cc2cccc(Oc3ccc(C(F)(F)F)cn3)c2)CC1 | PTGER1 (Homo sapiens, UniProt P34995) | binding, refers to: EP1 |  | 50 µM, human, with: [3H]prostaglandin E2 |  | inhibition | 41% |
| Oc1cc(Cl)ccc1Oc1ccc(Cl)cc1Cl | kasA | thermal stabilization, nanoDSF |  | 100 µM |  | ΔTm | 3.77 °C |
| O=C(c1ccc(Cl)cc1)N1CCN2C(=O)N(OC(=O)N3CCOc4ccccc43)C(=O)C2C1 (stereo not shown) | Carboxylesterase 3 (CES3, Homo sapiens, UniProt Q6UWW8) | enzyme activity, inhibitor, MS-based ABPP | SW-620 in situ | 10 µM, 2 h, 37 °C | reference: compound over DMSO, lower = stronger inhibition | median ratio | 1.15 |
| [2H]c1c([2H])c([C@]2([2H])CCCN2C(=O)C(C)(C)Oc2ccc3cn[nH]c3c2)c([2H])c([2H])c1C([2H])([2H])[2H] | ANKK1 (Homo sapiens, UniProt Q8NFD2) | KINOMEscan |  | 1 µM | reference: DMSO control | remaining binding | 96% |
| C[C@H]1CN(c2n[nH]c3nc(N[C@H]4CC[C@H](NS(=O)(=O)CCC(F)(F)F)CC4)ncc23)CCO1 | CDC37 (Homo sapiens, UniProt Q16543) | inhibitor, Kinobeads competition profiling |  | 0.032 µM | reference: vehicle | relative abundance | 0.95 |
| Oc1ccc2c3c1O[C@H]1[C@@H](O)CC[C@@]4(O)[C@@H](C2)N(CC2CCC2)CC[C@]314 | HCAR2 (Homo sapiens, UniProt Q8TDS4) | β-arrestin recruitment, TANGO luminescence, refers to: GPR109A |  | concentration not given | reference: basal luminescence | log2 fold change | -0.171 |
| CN1CCN(c2cc(-c3ccncc3)c(-c3ccc4ccccc4c3)nn2)CC1 | DRD1 (Homo sapiens, UniProt P21728) | antagonist, FLIPR |  | 10 µM |  | inhibition | -2.1% |
| CCN(CC)CCNC(=O)c1cc(Cl)c(N)cc1OC | kasA | thermal stabilization, nanoDSF |  | 100 µM |  | ΔTm | 0.02 °C |
| CC[C@H](C)[C@H](NC(=O)CNC(=O)[C@@H](N)CCCCN)C(=O)N[C@@H](CC(C)C)C(=O)N[C@@H](CCCCN)C(=O)N[C@@H](CCCNC(=N)N)C(=O)N[C@@H](CCC(=O)O)C(=O)N[C@@H](CCCCN)C(=O)N[C@@H](CCCNC(=N)N)C(=O)N[C@@H](CC(C)C)C(=O)N[C@@H](CCCNC(=N)N)C(=O)N[C@@H](CCCNC(=N)N)C(=O)N[C@@H](CCCCN)C(=O)N[C@@H](CC(N)=O)C(=O)N[C@H](C(=O)N[C@@H](Cc1c[nH]cn1)C(=O)N[C@@H](Cc1c[nH]c2ccccc12)C(=O)N1CCC[C@H]1C(=O)N[C@@H](CCC(=O)O)C(=O)N[C@@H](CCC(=O)O)C(=O)NCC(=O)N[C@@H](CCCCN)C(=O)N[C@@H](CC(C)C)C(=O)N[C@@H](CCCNC(=N)N)C(=O)N[C@@H](CCC(=O)O)C(=O)N[C@@H](Cc1ccccc1)C(=O)N[C@@H](Cc1ccccc1)C(=O)N[C@@H](Cc1ccccc1)C(=O)N[C@@H](Cc1ccccc1)C(=O)N[C@@H](CCC(=O)O)C(=O)N[C@@H](CC(C)C)C(=O)N[C@@H](CC(=O)O)C(=O)N[C@@H](CCC(=O)O)C(=O)N[C@@H](C)C(=O)N[C@@H](CCC(=O)O)C(=O)N[C@@H](CCCNC(=N)N)C(=O)N[C@H](C(=O)N[C@@H](CC(N)=O)C(=O)N[C@H](C(=O)O)C(C)C)C(C)C)C(C)C | HeLa and HEK-293T cells | phosphatase bead binding, competitive inhibitor, PIB pulldown iBAQ LC-MS/MS, refers to: PPP6R1 |  | concentration not given | reference: untreated control | log2 fold change | -0.23 |

Excerpt of the above:
| SMILES | tested on | test | test system | conditions | scale | endpoint | result |
| --- | --- | --- | --- | --- | --- | --- | --- |
| CN1CCN(c2cc(-c3ccncc3)c(-c3ccc4ccccc4c3)nn2)CC1 | DRD1 (Homo sapiens, UniProt P21728) | antagonist, FLIPR |  | 10 µM |  | inhibition | -2.1% |
